Published values collected from several papers.
Compare with care: the assays were run in different laboratories.
Organism: Staphylococcus aureus

`CCCCCCCC/C=C\CCCCCCCC(=O)NS(=O)(=O)NCCC` has an MIC of greater than 200 µg/mL (ATCC 33591 methicillin-resistant).
For `CCCCCC(=O)N[C@@H](CCCNC(=N)N)C(=O)N[C@@H](CCCNC(=N)N)C(=O)N[C@@H](CCCNC(=N)N)C(=O)N[C@@H](CCCNC(=N)N)C(=O)N[C@H](C(=O)N[C@@H](CC(C)C)C(=O)N[C@H](C(=O)N[C@@H](CCCCN)C(=O)N[C@@H](CCCCN)C(=O)N[C@H](C(=O)N[C@@H](CC(C)C)C(=O)N[C@@H](CCCCN)C(=O)N[C@@H](CC(C)C)C(=O)N[C@@H](CCCCN)C(=O)N[C@@H](CO)C(=O)N[C@@H](CO)C(=O)N[C@@H](C)C(=O)N[C@@H](Cc1ccc(O)cc1)C(N)=O)C(C)C)[C@@H](C)CC)[C@@H](C)CC`, the MIC was 64 µM (broth microdilution; 24 h, 37 °C).
`CCCCCCC#Cc1cncc(-c2nnc(SCc3ccc([N+](=O)[O-])o3)n2CCCN)c1` gave an MIC of greater than 64 µg/mL (broth microdilution; Mu50 MRSA VISA; 18 to 24 h, 37 °C).
`CC[C@H](C)[C@H](NC(=O)[C@H](CC(C)C)NC(=O)[C@H](CCCNC(=N)N)NC(=O)[C@@H](N)CCCNC(=N)N)C(=O)N[C@@H](CCCNC(=N)N)C(=O)N[C@H](C(=O)N[C@@H](CC(C)C)C(=O)N[C@H](C(=O)NCC(=O)N1CCC[C@H]1C(=O)N[C@H](C(=O)N[C@H](C(=O)N[C@@H](Cc1ccc(O)cc1)C(=O)N[C@@H](CC(C)C)C(=O)N[C@@H](Cc1ccc(O)cc1)C(=O)N[C@@H](Cc1ccccc1)C(=O)N[C@@H](CCCCN)C(=O)N[C@@H](CC(C)C)C(=O)N[C@@H](CCC(N)=O)C(=O)N[C@@H](CC(C)C)C(=O)N[C@@H](CC(C)C)C(=O)N[C@@H](CCCCN)C(=O)N[C@@H](CCCCN)C(N)=O)[C@@H](C)CC)[C@@H](C)CC)[C@@H](C)O)[C@@H](C)O` has an MIC of 128 µM (CCARM 3095, methicillin-resistant, Mueller-Hinton broth; 24 h).
For `CC[C@H](C)[C@H](NC(=O)[C@H](CCCCN)NC(=O)[C@@H]1CCCN1C(=O)[C@H](CCCNC(=N)N)NC(=O)[C@H](Cc1ccc(O)cc1)NC(=O)[C@H](CCCNC(=N)N)NC(=O)[C@H](CCCNC(=N)N)NC(=O)[C@@H](NC(=O)[C@H](CCCNC(=N)N)NC(=O)[C@H](CCCNC(=N)N)NC(=O)[C@H](CC(C)C)NC(=O)[C@H](Cc1ccccc1)NC(=O)[C@H](CCCNC(=N)N)NC(=O)[C@H](CO)NC(=O)[C@H](Cc1ccccc1)NC(=O)[C@@H](N)CCCNC(=N)N)C(C)C)C(=O)N[C@@H](CO)C(=O)N[C@@H](Cc1ccccc1)C(=O)N[C@@H](CC(N)=O)C(=O)N[C@@H](CC(C)C)C(=O)N[C@@H](CCC(=O)O)C(=O)N1CCC[C@H]1C(=O)N[C@@H](Cc1ccccc1)C(=O)N[C@@H](Cc1ccccc1)C(=O)N[C@@H](CCCCN)C(=O)N[C@@H](Cc1ccccc1)C(=O)O`, the MIC was 1.27 µM (broth microdilution; ATCC 25923, Mueller-Hinton broth; 16 to 20 h, 37 °C).
`N=C(N)NCCC[C@H](NC(=O)[C@@H](N)CCCNC(=N)N)C(=O)N[C@@H](Cc1c[nH]c2ccccc12)C(=O)N[C@@H](Cc1c[nH]c2ccccc12)C(=O)N[C@@H](Cc1ccccc1)C(=O)N[C@@H](CCC(N)=O)C(=O)N[C@@H](Cc1ccccc1)C(=O)N[C@@H](CCC(N)=O)C(=O)N[C@@H](Cc1ccccc1)C(=O)N[C@@H](CCCCN)C(N)=O` has an MIC of 570 µM (broth microdilution, optical density; ATCC 25923).
The MIC of `CC[C@H](C)[C@H](NC(=O)[C@H](CC(C)C)NC(=O)[C@H](CCCNC(=N)N)NC(=O)[C@@H](N)CCCNC(=N)N)C(=O)N[C@@H](CCCNC(=N)N)C(=O)N[C@@H](CCCCN)C(=O)N[C@@H](CC(C)C)C(=O)N[C@@H](CCCCN)C(=O)NCC(=O)N[C@@H](CC(C)C)C(=O)N[C@@H](CCCCN)C(=O)N[C@@H](CCCCN)C(=O)N[C@@H](Cc1ccc(O)cc1)C(=O)N[C@@H](CC(C)C)C(=O)N[C@@H](Cc1ccc(O)cc1)C(=O)N[C@@H](Cc1ccccc1)C(=O)N[C@@H](CCCCN)C(=O)N[C@@H](CC(C)C)C(=O)N[C@@H](CCC(N)=O)C(=O)N[C@@H](CC(C)C)C(=O)N[C@@H](CC(C)C)C(=O)N[C@@H](CCCCN)C(=O)N[C@@H](CCCCN)C(N)=O` is reported as 8 µM (CCARM 3095, methicillin-resistant, Mueller-Hinton broth; 24 h).
For `CC(C)C[C@H](NC(=O)CNC(=O)CNC(=O)CNC(=O)[C@H](Cc1ccc(O)cc1)NC(=O)[C@H](CC(C)C)NC(=O)[C@@H](NC(=O)CNC(=O)[C@H](Cc1ccc(O)cc1)NC(=O)[C@H](CCCCN)NC(=O)[C@H](CC(N)=O)NC(=O)[C@@H](NC(=O)[C@H](CCCCN)NC(=O)[C@H](Cc1c[nH]c2ccccc12)NC(=O)CN)[C@@H](C)O)[C@@H](C)O)C(=O)N[C@@H](CCCCN)C(=O)N[C@@H](CCCCN)C(=O)N[C@@H](CC(C)C)C(=O)N[C@@H](CC(C)C)C(=O)N[C@@H](CC(C)C)C(=O)N[C@@H](CC(C)C)C(=O)N[C@@H](CC(C)C)C(=O)N[C@@H](CCCCN)C(=O)N[C@@H](CCCCN)C(=O)N[C@@H](CC(C)C)C(=O)NCC(=O)O`, the MIC was 16 µg/mL (ATCC 25923; added: 4.5 mM KCl).
The MIC of `CC(C)C[C@@H](NC(=O)CNC(=O)[C@@H](CCCCN)NC(=O)[C@@H](CC(C)C)NC(=O)[C@@H](CCCCN)NC(=O)[C@@H](CCCNC(=N)N)NC(=O)[C@@H](CC(C)C)NC(=O)[C@@H](CC(C)C)NC(=O)[C@@H](CCCNC(=N)N)NC(=O)[C@H](N)CCCNC(=N)N)C(=O)N[C@H](CCCCN)C(=O)N[C@H](CCCCN)C(=O)N[C@H](Cc1ccc(O)cc1)C(=O)N[C@H](CC(C)C)C(=O)N[C@H](Cc1ccc(O)cc1)C(=O)N[C@H](Cc1ccccc1)C(=O)N[C@H](CCCCN)C(=O)N[C@H](CC(C)C)C(=O)N[C@H](CCC(N)=O)C(=O)N[C@H](CC(C)C)C(=O)N[C@H](CC(C)C)C(=O)N[C@H](CCCCN)C(=O)N[C@H](CCCCN)C(N)=O` is reported as 4 µM (CCARM 3090, methicillin-resistant, Mueller-Hinton broth; 24 h).
With `C/C(=C\C(=O)OCCCCCCCCC(=O)O)C[C@@H]1OC[C@H](C[C@@H]2O[C@H]2[C@@H](C)[C@H](C)O)[C@@H](O)[C@H]1O` the MIC was 2 µg/mL (CRB, PBP4 deletion).
The MIC of `NC(=O)c1ccc(N(C(N)=O)c2c(F)cccc2F)nc1-c1ccc(F)cc1F` is reported as greater than 30 µM (NCTC 8325).
For `CC[C@H](C)[C@H](NC(=O)[C@H](CC(C)C)NC(=O)[C@H](CCCCN)NC(=O)[C@@H](NC(=O)[C@H](C)NC(=O)[C@H](CCC(=O)O)NC(=O)[C@H](Cc1c[nH]cn1)NC(=O)[C@@H](NC(=O)[C@H](CCCCN)NC(=O)[C@H](CCC(N)=O)NC(=O)[C@H](Cc1ccccc1)NC(=O)[C@@H](NC(=O)[C@H](CCCCN)NC(=O)[C@H](CCCCN)NC(=O)[C@H](CC(C)C)NC(=O)[C@H](C)N)C(C)C)[C@@H](C)CC)[C@@H](C)CC)C(N)=O`, the MIC was 8 µM (broth microdilution; MW2 resistant; 18 h, 37 °C).
`C[C@@H](O)[C@H](NC(=O)[C@H](Cc1c[nH]c2ccccc12)NC(=O)[C@H](Cc1c[nH]c2ccccc12)NC(=O)[C@H](Cc1c[nH]c2ccccc12)NC(=O)[C@@H](NC(=O)[C@H](Cc1c[nH]c2ccccc12)NC(=O)[C@H](CCCNC(=N)N)NC(=O)[C@@H](N)CCCNC(=N)N)[C@@H](C)O)C(=O)N[C@@H](Cc1c[nH]c2ccccc12)C(=O)N[C@@H](CCCNC(=N)N)C(=O)N[C@@H](CCCNC(=N)N)C(N)=O` gave an MIC of 2 µM (broth microdilution; 29213, Mueller-Hinton broth; 24 h, 37 °C, lowest concentration, 95% inhibition, added: BSA).
The MIC of `CC[C@H](C)[C@H](N)C(=O)N[C@@H](CC(C)C)C(=O)NCC(=O)N[C@@H](CCCNC(=N)N)C(=O)N[C@H](C(=O)N[C@@H](Cc1c[nH]c2ccccc12)C(=O)N[C@@H](CCCCN)C(=O)NCC(=O)N[C@H](C(=O)N[C@@H](CCCCN)C(=O)N[C@@H](CC(=O)O)C(=O)N[C@H](C(=O)N[C@@H](CC(C)C)C(N)=O)[C@@H](C)CC)[C@@H](C)CC)[C@@H](C)CC` is reported as 6.25 µM (broth microdilution; MRSA ATCC 33591, Mueller-Hinton broth; 16 h, 37 °C).
For `Cc1ccc2[nH]c3c(c2c1)CCCC3NCCc1ccc(Br)cc1` (stereo not drawn), the MIC was 4 µg/mL (broth microdilution; SA113).
With `CC[C@H](C)[C@H](NC(=O)[C@H](Cc1ccccc1)NC(=O)[C@@H](NC(=O)[C@H](Cc1c[nH]c2ccccc12)NC(=O)[C@@H]1CCCN1C(=O)[C@@H](NC(=O)[C@H](C)N)[C@@H](C)CC)[C@@H](C)CC)C(=O)N[C@@H](Cc1ccccc1)C(=O)N[C@@H](CCCNC(=N)N)C(=O)N[C@@H](CC(C)C)C(=O)N[C@@H](CC(C)C)C(=O)N[C@@H](CCCNC(=N)N)C(=O)N[C@@H](CCCCN)C(=O)NCC(N)=O` the MIC was 0.94 µM (broth microdilution; ATCC 6051; 18 h, 37 °C).
`CC[C@H](C)[C@H](NC(=O)[C@H](CC(C)C)NC(=O)[C@H](CCCNC(=N)N)NC(=O)[C@@H](N)CCCNC(=N)N)C(=O)N[C@@H](CCCNC(=N)N)C(=O)N[C@H](C(=O)N[C@@H](CC(=O)O)C(=O)N[C@H](C(=O)NCC(=O)N1CCC[C@H]1C(=O)N[C@H](C(=O)N[C@H](C(=O)N[C@@H](Cc1ccc(O)cc1)C(=O)N[C@@H](CC(=O)O)C(=O)N[C@@H](Cc1ccc(O)cc1)C(=O)N[C@@H](Cc1ccccc1)C(=O)N[C@@H](CCCCN)C(=O)N[C@@H](CC(=O)O)C(=O)N[C@@H](CCC(N)=O)C(=O)N[C@@H](CC(C)C)C(=O)N[C@@H](CC(C)C)C(=O)N[C@@H](CCCCN)C(=O)N[C@@H](CCCCN)C(N)=O)[C@@H](C)CC)[C@@H](C)CC)[C@@H](C)O)[C@@H](C)O` gave an MIC of greater than 128 µM (CCARM 3095, methicillin-resistant, Mueller-Hinton broth; 24 h).
`CC(C)C[C@H](NC(=O)[C@H](C)NC(=O)[C@@H](NC(=O)[C@H](CCCNC(=N)N)NC(=O)[C@H](CC(C)C)NC(=O)[C@H](Cc1c[nH]c2ccccc12)NC(=O)[C@@H]1CCCN1C(=O)[C@@H](N)CCCCN)C(C)C)C(=O)N[C@@H](CS)C(=O)N1CCC[C@H]1C(=O)NCC(=O)O` has an MIC of 32 µM (broth microdilution; methicillin-resistant L6).

For quick reference, copied from above:
For `Cc1ccc2[nH]c3c(c2c1)CCCC3NCCc1ccc(Br)cc1` (stereo not drawn), the MIC was 4 µg/mL (broth microdilution; SA113).
With `CC[C@H](C)[C@H](NC(=O)[C@H](Cc1ccccc1)NC(=O)[C@@H](NC(=O)[C@H](Cc1c[nH]c2ccccc12)NC(=O)[C@@H]1CCCN1C(=O)[C@@H](NC(=O)[C@H](C)N)[C@@H](C)CC)[C@@H](C)CC)C(=O)N[C@@H](Cc1ccccc1)C(=O)N[C@@H](CCCNC(=N)N)C(=O)N[C@@H](CC(C)C)C(=O)N[C@@H](CC(C)C)C(=O)N[C@@H](CCCNC(=N)N)C(=O)N[C@@H](CCCCN)C(=O)NCC(N)=O` the MIC was 0.94 µM (broth microdilution; ATCC 6051; 18 h, 37 °C).
